Results collected from several papers.
Parts stem from different laboratories: compare values within a part only.

Set 1 — method: competition protein-binding microarray; molecule type: double-stranded DNA, one strand shown; medium: in vitro; concentration: 2 µM; with: Cbf1 competitor, 0.05 µM; direction: higher = stronger binding; all sequences stand within: … GTCTTGATTCGCTTGACGCTGCTG
Target: Phosphate system positive regulatory protein PHO4, full length, GST-tagged (PHO4, Saccharomyces cerevisiae, UniProt P07270, residues 1-312)
Notes: whole 60-bp probe, lowest competitor level
Residues (chain): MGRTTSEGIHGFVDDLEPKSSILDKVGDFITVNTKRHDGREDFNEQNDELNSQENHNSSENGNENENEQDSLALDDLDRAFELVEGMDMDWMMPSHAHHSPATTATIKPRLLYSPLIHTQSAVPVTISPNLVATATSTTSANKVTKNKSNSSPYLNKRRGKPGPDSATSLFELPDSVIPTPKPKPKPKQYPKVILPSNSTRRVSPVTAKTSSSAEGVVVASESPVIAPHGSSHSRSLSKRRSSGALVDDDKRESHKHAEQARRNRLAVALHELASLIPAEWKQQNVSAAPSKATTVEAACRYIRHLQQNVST
| Sequence | fluorescence intensity |
| --- | --- |
| ACTTGGCGTTGGTCCAACGTGGAATTTCAACAACCA | 8940 a.u. |
| GCATAAGGAGTGGCCCATGTGTGCCAAAACTCTTCT | 10100 a.u. |
| CATACCCAACCTTGGCATGTGGGTGAAGATATTTGT | 13000 a.u. |
| CTACCGTCAAATATACACGTGTAGTCCCTGGATTTG | 17500 a.u. |
| GGGCTGTAGCTTGGCGACGTGGGACAGTAGGAAGGC | 6560 a.u. |

Set 2 — method: universal PBM; molecule type: double-stranded DNA, one strand shown; medium: in vitro; concentration: 600 nM; direction: higher = stronger binding
Target: Sal-like protein 4, full length isoform A (SALL4, Homo sapiens, UniProt Q9UJQ4, residues 1-1053)
Chain of UniProt Q9UJQ4 (whole entry, looked up): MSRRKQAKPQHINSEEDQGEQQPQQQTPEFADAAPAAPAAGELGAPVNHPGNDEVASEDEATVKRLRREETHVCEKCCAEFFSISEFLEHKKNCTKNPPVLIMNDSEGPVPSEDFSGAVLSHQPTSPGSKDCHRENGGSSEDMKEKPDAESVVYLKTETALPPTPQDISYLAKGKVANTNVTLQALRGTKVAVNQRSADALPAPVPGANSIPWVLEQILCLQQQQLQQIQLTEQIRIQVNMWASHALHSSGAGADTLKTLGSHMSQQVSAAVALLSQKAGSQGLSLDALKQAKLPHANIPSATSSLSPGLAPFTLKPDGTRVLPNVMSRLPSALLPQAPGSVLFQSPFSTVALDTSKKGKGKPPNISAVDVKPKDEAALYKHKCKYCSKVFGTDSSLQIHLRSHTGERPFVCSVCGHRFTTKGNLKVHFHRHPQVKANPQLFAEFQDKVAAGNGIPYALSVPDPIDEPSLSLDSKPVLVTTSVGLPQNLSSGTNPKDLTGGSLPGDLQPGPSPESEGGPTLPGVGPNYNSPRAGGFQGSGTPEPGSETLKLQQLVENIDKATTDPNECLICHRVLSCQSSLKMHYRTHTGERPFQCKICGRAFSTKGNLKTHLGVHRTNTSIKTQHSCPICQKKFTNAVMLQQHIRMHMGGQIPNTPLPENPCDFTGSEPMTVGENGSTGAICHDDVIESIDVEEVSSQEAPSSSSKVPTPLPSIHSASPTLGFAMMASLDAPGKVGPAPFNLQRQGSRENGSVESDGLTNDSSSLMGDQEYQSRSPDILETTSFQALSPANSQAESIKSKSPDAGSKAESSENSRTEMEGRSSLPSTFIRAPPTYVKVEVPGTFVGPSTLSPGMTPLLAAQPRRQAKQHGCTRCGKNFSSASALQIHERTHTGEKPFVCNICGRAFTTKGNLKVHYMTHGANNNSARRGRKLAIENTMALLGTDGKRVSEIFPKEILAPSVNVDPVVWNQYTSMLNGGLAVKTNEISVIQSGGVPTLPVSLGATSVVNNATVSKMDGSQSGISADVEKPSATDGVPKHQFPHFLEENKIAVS
Notes: 8-mer, flanks averaged, mean of replicates
| Sequence | E-score |
| --- | --- |
| TAAGTACA | 0.252 |
| CTTATTAC | 0.303 |
| AAGATGAC | 0.132 |
| CTGTATGA | 0.221 |
| AAGTGCGA | -0.183 |
| CGCTCACG | -0.309 |
| GTTACACA | 0.107 |

Set 3 — method: protein-binding microarray; molecule type: double-stranded DNA, one strand shown; medium: in vitro; concentration: 2200 nM top; notes: 60-bp whole probe; with: salmon DNA 0.4 mg/ml; reference: random background probes; direction: higher = stronger binding
Target: Interferon regulatory factor 7, full length, phosphomimetic (IRF7, Homo sapiens, UniProt Q92985, residues 1-503, S471D/S472D/S475D/S476D/S477D/S483D/S484D/S487D)
Chain of UniProt Q92985 (whole entry, unmodified, looked up): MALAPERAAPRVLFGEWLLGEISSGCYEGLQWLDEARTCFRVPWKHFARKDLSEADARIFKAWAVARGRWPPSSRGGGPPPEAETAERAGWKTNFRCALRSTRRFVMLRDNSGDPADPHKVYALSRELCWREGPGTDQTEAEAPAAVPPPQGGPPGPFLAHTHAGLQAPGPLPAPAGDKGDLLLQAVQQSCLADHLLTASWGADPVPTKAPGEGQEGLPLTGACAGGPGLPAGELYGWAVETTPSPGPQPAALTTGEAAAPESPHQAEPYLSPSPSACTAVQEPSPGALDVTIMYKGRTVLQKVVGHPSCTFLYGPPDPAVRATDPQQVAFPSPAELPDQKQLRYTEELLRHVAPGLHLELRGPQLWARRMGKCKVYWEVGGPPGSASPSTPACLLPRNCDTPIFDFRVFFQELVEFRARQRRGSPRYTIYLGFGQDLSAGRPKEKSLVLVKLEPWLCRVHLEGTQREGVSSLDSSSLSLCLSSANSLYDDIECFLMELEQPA
All sequences stand within: GCCTAGCAC … GTGCTAGGTCTTGATTCGCTTGACGCTGCTG
| Sequence | fitted relative affinity [z-score] |
| --- | --- |
| TTAGGACTGGCTATCGGTTA | -0.232 |
| TGACAGAGTGAGGTTTGGGC | -0.68 |
| TTAGGTTTACTACTGCTTTA | 0.636 |
| GACGATCTAAGACTGGAGAC | -0.247 |
| GACGGTCTCCTACTGCTGAG | 0.212 |

Mixed results
| Molecule | target | test | test system | conditions | scale | quantity | value |
| --- | --- | --- | --- | --- | --- | --- | --- |
| PhoQ, residues 284 288 289 292 302 303 AGGCYF | PhoP, residues 12 14 15 18 19 NFCKL (Escherichia coli, UniProt P23836) | Sort-seq, refers to: YFP reporter | E. coli | PhoQ-PhoP variant library, with: 10 µM Mg2+ | reference: high Mg2+ state, higher = stronger signaling | fold induction | 0.552 |

Excerpt of the above (set 3):
| Sequence | fitted relative affinity [z-score] |
| --- | --- |
| GACGATCTAAGACTGGAGAC | -0.247 |
